Assay results from different studies.
Numbered parts are unrelated; each lists some results of a single study. Substitutions count along the parent as printed.

Block 1
Target: Interferon regulatory factor 7, full length, phosphomimetic (IRF7, Homo sapiens, UniProt Q92985, residues 1-503, S101K/S471D/S472D/S475D/S476D/S477D/S483D/S484D/S487D)
Technique: protein-binding microarray
Form: double-stranded DNA, one strand shown
Medium: in vitro
Concentration: 250 nM
Setting: 60-bp whole probe
Together with: salmon DNA 0.4 mg/ml
Baseline: random background probes
Reading: higher = stronger binding
Constant ends, left off below: GCCTAGCAC … GTCTTGATTCGCTTGACGCTGCTG
Target sequence (chain): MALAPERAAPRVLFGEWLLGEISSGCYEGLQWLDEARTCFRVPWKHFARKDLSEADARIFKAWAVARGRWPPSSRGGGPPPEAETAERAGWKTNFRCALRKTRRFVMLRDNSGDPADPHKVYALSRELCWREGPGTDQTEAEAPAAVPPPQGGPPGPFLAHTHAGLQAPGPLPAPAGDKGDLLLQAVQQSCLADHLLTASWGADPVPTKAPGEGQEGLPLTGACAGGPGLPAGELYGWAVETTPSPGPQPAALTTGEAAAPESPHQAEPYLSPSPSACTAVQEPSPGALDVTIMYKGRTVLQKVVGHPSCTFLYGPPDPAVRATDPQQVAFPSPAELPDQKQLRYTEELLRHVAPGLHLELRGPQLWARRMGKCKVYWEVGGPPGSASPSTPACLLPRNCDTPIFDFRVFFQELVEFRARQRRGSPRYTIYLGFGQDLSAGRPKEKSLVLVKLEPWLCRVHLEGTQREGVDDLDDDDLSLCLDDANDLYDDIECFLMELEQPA
The log fluorescence of `GACGGTATCGGTATTGGGACGTGCTAG` is reported as 1.27 z-score.
The log fluorescence of `TTTTTTTTTTTTTTTTGGAAGTGCTAG` is reported as 0.664 z-score.
The log fluorescence of `GACGGTATCCTTTTCCTCACGTGCTAG` is reported as 1.49 z-score.
For `TTAGGATTGGGTTTCGGTTAGTGCTAG`, the log fluorescence was 6.87 z-score.
`TTAGGTATCTGGTTTCGGTTAGTGCTA` gave a log fluorescence of 8.4 z-score.
With `TTAGATATCAGGCTCGATTAGTGCTAG` the log fluorescence was 0.634 z-score.
With `TTAGAACTGGGGTATGGATTAGTGCTA` the log fluorescence was -0.445 z-score.
With `TTAGGACTGGACTATCGCTTAGTGCTA` the log fluorescence was -0.461 z-score.
`TTAGGTATCGGTTTCGCTTAGTGCTAG` has a log fluorescence of 9.17 z-score.
`TTAGATTTCGGGACAGGATTAGTGCTA` has a log fluorescence of 0.409 z-score.
For `ATATATGTGTATATATAATAGTGCTAG`, the log fluorescence was 0.453 z-score.
`TTAGGTTTCATTCTCCTTTAGTGCTAG` gave a log fluorescence of 3.86 z-score.
For `TTAGGACTGCCTTTCCTTTAGTGCTAG`, the log fluorescence was 0.578 z-score.
`TCAATTCTCAACCCTGGTACTGTGCTA` has a log fluorescence of 0.481 z-score.

Block 2
Target: Sal-like protein 4, full length isoform A (SALL4, Homo sapiens, UniProt Q9UJQ4, residues 1-1053)
Sequence of UniProt Q9UJQ4 (whole entry, looked up): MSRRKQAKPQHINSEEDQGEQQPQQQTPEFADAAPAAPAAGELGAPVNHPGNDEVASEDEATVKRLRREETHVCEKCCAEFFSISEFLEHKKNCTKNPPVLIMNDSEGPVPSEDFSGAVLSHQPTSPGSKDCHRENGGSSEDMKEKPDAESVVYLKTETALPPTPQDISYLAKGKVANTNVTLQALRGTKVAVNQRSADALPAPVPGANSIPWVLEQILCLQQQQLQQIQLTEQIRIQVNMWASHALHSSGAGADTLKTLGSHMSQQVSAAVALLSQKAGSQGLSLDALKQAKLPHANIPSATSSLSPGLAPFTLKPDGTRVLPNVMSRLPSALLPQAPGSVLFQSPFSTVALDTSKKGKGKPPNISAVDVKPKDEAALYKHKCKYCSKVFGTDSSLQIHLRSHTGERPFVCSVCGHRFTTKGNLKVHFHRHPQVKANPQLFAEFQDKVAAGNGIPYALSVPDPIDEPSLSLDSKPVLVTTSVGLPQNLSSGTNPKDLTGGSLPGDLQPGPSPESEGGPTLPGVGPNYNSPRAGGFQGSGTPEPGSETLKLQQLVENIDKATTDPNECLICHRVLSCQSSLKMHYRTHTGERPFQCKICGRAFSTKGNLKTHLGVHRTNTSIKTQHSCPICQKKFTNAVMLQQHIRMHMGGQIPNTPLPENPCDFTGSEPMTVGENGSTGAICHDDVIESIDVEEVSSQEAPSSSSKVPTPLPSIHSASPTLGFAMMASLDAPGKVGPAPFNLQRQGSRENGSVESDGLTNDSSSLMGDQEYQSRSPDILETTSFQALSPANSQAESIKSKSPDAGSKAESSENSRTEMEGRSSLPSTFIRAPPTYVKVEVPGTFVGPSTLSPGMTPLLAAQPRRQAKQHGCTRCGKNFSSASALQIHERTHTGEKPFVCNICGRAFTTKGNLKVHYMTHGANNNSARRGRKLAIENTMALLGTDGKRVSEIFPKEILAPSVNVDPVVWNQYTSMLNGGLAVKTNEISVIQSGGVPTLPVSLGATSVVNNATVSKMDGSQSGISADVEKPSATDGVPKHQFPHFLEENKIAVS
Technique: universal PBM
Form: double-stranded DNA, one strand shown
Medium: in vitro
Concentration: 600 nM
Setting: 8-mer, flanks averaged, mean of replicates
Reading: higher = stronger binding
The E-score of `AGATTCCT` is reported as -0.00412.
For `ACCCACGG`, the E-score was -0.336.
With `CAACCGAG` the E-score was -0.144.
For `AGGACGTA`, the E-score was -0.121.
`CCCCCCAC` has an E-score of -0.241.
For `CCACTTTA`, the E-score was 0.0583.
For `CATCAAGG`, the E-score was -0.0357.
`ACCGCATG` gave an E-score of -0.0874.
`GCTGCAAA` gave an E-score of 0.222.
For `CGCAGGAC`, the E-score was -0.283.
The E-score of `TATCAAGA` is reported as 0.209.
With `AAAGTCTT` the E-score was 0.0972.
The E-score of `ACGTCAAA` is reported as 0.162.
`ACGTCCGC` has an E-score of -0.198.
`GGCAATTA` has an E-score of 0.228.
For `CAGTGGTC`, the E-score was -0.237.
For `AGAGTGCG`, the E-score was -0.161.
For `CATTAGGA`, the E-score was 0.143.
`CGAGTAGC` gave an E-score of -0.0604.
`ACCCGCCC` gave an E-score of -0.192.

Block 3
Target: CCNA2, cyclin fold, Cln2 fusion (human)
Technique: yeast growth competition, sequencing
Medium: yeast
Setting: strong parent motif
Baseline: not given
Reading: higher = stronger binding
Parent: GMNC docking peptide (human); KNAKRNLSSEFAN; partner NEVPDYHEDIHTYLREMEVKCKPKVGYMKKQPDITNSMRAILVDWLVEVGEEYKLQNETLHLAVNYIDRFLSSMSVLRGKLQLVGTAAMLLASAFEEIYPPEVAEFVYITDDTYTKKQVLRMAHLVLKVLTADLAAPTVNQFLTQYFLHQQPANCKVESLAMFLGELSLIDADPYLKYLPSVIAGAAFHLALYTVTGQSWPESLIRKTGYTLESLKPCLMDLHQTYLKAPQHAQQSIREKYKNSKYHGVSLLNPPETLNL
`KNAKRNLSSEFQN [A12Q]`: “normalised enrichment score” 4.75.
`KNAKRNLSSVFAN [E10V]` — result for “normalised enrichment score”: 4.02.
Under “normalised enrichment score”, `KNRKRNLSSEFAN [A3R]` is recorded as 1.68.
For `KNAKSNLSSEFAN [R5S]`, “normalised enrichment score” read 0.689.
Under “normalised enrichment score”, `KNAKRYLSSEFAN [N6Y]` is recorded as -0.112.
For `KNAKMNLSSEFAN [R5M]`, “normalised enrichment score” read 0.639.
`KNAKRNLSSRFAN [E10R]`: “normalised enrichment score” 1.71.
`KNAKRNLSSEPAN [F11P]`: “normalised enrichment score” -0.0213.
`KNAKRNLSYEFAN [S9Y]`: “normalised enrichment score” 5.39.
For `KNAKRDLSSEFAN [N6D]`, “normalised enrichment score” read 3.99.
`KNAKRNLSTEFAN [S9T]` — result for “normalised enrichment score”: 5.09.
Under “normalised enrichment score”, `KNAKRNLSSEFLN [A12L]` is recorded as 4.3.
For `KNAKRNLSGEFAN [S9G]`, “normalised enrichment score” read 4.27.
For `KNAKPNLSSEFAN [R5P]`, “normalised enrichment score” read -0.164.
Under “normalised enrichment score”, `KPAKRNLSSEFAN [N2P]` is recorded as 5.67.
`KNAKRNLSSEWAN [F11W]`: “normalised enrichment score” 2.65.
`KWAKRNLSSEFAN [N2W]` — result for “normalised enrichment score”: 3.57.
`KNNKRNLSSEFAN [A3N]`: “normalised enrichment score” 0.653.
Under “normalised enrichment score”, `KNAKRNLKSEFAN [S8K]` is recorded as 2.69.
For `KNAKRNLSSEEAN [F11E]`, “normalised enrichment score” read 0.163.
For `KNAKRNLSSEFWN [A12W]`, “normalised enrichment score” read 4.36.
Under “normalised enrichment score”, `KNAKRTLSSEFAN [N6T]` is recorded as 1.7.
Under “normalised enrichment score”, `KNAKRHLSSEFAN [N6H]` is recorded as 0.564.
`KNAKRNLDSEFAN [S8D]`: “normalised enrichment score” 4.87.

Block 4
Target: Histone acetyltransferase KAT6A, winged helix 2, GST fusion (KAT6A, Homo sapiens, UniProt Q92794, residues 85-181)
Technique: protein binding microarray
Form: double-stranded DNA, one strand shown
Medium: in vitro
Concentration: not given
Setting: 8-mer, flanks averaged, mean of 2 arrays, mostly near background
Baseline: not given
Reading: higher = stronger binding
Residues (chain): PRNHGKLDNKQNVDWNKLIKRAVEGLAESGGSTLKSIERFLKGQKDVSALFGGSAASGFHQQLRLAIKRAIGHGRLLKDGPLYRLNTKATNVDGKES
`CGAGGTCC` gave an E-score of 0.186.
`AAACGCTG` has an E-score of -0.0419.
`AAAATATT` has an E-score of -0.0105.
With `CTTGGTTA` the E-score was 0.0304.
`TACTCGAA` gave an E-score of -0.0724.
`GTGCTCGA` gave an E-score of -0.00604.
For `CGGCGCCG`, the E-score was 0.32.
With `CTAGCTAC` the E-score was -0.00707.
`CTGAAATC` gave an E-score of -0.0193.
`CAATCATG` gave an E-score of 0.098.
`CTATCGAA` has an E-score of -0.0501.
The E-score of `ACATGCTG` is reported as -0.0777.
`AATTAATT` gave an E-score of 0.15.
The E-score of `ACCTACTC` is reported as -0.174.
`ACAACTCG` gave an E-score of -0.0921.
For `CCATGAGC`, the E-score was -0.0593.
For `AATCGCCA`, the E-score was 0.0349.
With `CACGTAAC` the E-score was -0.241.
`CTGCTTGC` has an E-score of 0.0438.
`GAAGGCTC` gave an E-score of -0.114.
`CAATACTA` has an E-score of -0.0307.
`CTGGCTCA` gave an E-score of 0.0404.
With `GGTGGCCA` the E-score was -0.0355.
The E-score of `TCGTCAAA` is reported as 0.125.
With `AGTGCATA` the E-score was -0.0174.

Block 5
Target: Centromere-binding protein 1, full length, His-tagged (CBF1, Saccharomyces cerevisiae, UniProt P17106, residues 1-351)
Sequence of UniProt P17106 (whole entry, looked up): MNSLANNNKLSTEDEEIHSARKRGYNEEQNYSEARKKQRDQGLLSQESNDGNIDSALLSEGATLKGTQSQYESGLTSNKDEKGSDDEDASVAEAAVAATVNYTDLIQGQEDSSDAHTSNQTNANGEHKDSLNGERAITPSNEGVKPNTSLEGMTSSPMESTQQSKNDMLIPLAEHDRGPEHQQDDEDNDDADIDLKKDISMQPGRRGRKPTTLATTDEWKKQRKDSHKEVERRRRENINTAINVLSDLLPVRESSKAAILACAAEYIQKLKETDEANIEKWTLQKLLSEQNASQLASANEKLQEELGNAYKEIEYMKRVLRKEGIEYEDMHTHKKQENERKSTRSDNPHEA
Technique: competition protein-binding microarray
Form: double-stranded DNA, one strand shown
Medium: in vitro
Concentration: 2 µM
Setting: whole 60-bp probe, lowest competitor level
Together with: Pho4 competitor, 0.05 µM
Reading: higher = stronger binding
For `CTTCTGTAAATTTGTCACCTCACTTGACGCGCCCCGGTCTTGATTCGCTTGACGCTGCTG`, the fluorescence intensity was 88.2 a.u.
The fluorescence intensity of `GTCTTGTCTCATTGGAGGGTGGGTGTCCCCACTTCAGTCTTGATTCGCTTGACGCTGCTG` is reported as 84.1 a.u.
With `CGGGGTTAAGTTTGTCACTCAACTTGCTTGCAGCAGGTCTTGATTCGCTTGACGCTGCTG` the fluorescence intensity was 66.7 a.u.
The fluorescence intensity of `CTTTCCCGATCTTGCAGCGTGGGTGTAGCACATTTGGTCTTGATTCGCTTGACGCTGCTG` is reported as 80.2 a.u.
For `TCCACCCATTGCTGCCGCGTGGACGCAGAATTTCCAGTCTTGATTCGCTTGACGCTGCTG`, the fluorescence intensity was 76.1 a.u.
The fluorescence intensity of `CTTTCCCGATCTTGTCACTTTACTTTAGCACATTTGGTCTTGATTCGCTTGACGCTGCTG` is reported as 79.7 a.u.
`GATGCCGAAGATTTCCATGTGGCTGAGGAAGTTAAAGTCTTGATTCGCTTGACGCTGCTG` has a fluorescence intensity of 60.9 a.u.
With `CTAACGAAGGTTTGTCATGTGGGTGACAAGCCAAGTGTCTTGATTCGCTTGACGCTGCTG` the fluorescence intensity was 178 a.u.
For `CCCTGATTAACTCACCACGTGCTTTCAAGGTCGTTAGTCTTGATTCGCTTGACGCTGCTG`, the fluorescence intensity was 3010 a.u.
`AATGTCAGTATTTATAGCGTGATGGTTCATTACCCGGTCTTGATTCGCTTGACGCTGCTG` has a fluorescence intensity of 134 a.u.
For `ACATCTGTCTGGTTTGACGTGACAAATACCTTTCTTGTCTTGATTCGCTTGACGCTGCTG`, the fluorescence intensity was 93.8 a.u.
`CCCTCCCTTCTCTGCTCCGTGATGGCCATTTCAACCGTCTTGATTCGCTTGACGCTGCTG` has a fluorescence intensity of 95.1 a.u.
`CGTCCTAGTGATTTTCACGTGCCTTCCATGAGGAAGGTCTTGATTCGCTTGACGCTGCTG` has a fluorescence intensity of 1540 a.u.
`CGTCCTAGTGATTGCTCGGTGGGTGCCATGAGGAAGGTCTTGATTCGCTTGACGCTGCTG` has a fluorescence intensity of 71 a.u.
With `ATGGGCTCGAAAAATCTCGTGCCAGTGTAGACTCCCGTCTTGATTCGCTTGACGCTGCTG` the fluorescence intensity was 133 a.u.
With `GCAATTCTTAGAGGCCACGTGGGCAGAGAGCGGCGCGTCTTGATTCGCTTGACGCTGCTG` the fluorescence intensity was 1470 a.u.
With `AAATTACTAAGTTGTCACCTAACTTACCCCGTATGAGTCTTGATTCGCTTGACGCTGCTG` the fluorescence intensity was 76.6 a.u.
With `GTCTTGTCTCATTGTTGCGTGGGTGTCCCCACTTCAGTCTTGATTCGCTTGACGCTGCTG` the fluorescence intensity was 77.1 a.u.
The fluorescence intensity of `CTTCTGTAAATTTGCGGTGTGGGTGGACGCGCCCCGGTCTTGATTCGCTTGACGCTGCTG` is reported as 73.8 a.u.

Repeated from above (block 1):
The log fluorescence of `TTTTTTTTTTTTTTTTGGAAGTGCTAG` is reported as 0.664 z-score.
The log fluorescence of `GACGGTATCCTTTTCCTCACGTGCTAG` is reported as 1.49 z-score.
For `TTAGGATTGGGTTTCGGTTAGTGCTAG`, the log fluorescence was 6.87 z-score.
`TTAGGTATCTGGTTTCGGTTAGTGCTA` gave a log fluorescence of 8.4 z-score.
With `TTAGATATCAGGCTCGATTAGTGCTAG` the log fluorescence was 0.634 z-score.
With `TTAGAACTGGGGTATGGATTAGTGCTA` the log fluorescence was -0.445 z-score.
With `TTAGGACTGGACTATCGCTTAGTGCTA` the log fluorescence was -0.461 z-score.
